Measured values collected from several papers.
Every numbered part comes from another study and shows a few of its results, in no order.

Series 1
Target: Ras GTPase-activating protein-binding protein 1, full length (G3BP1, Homo sapiens, UniProt Q13283)
Chain of UniProt Q13283 (whole entry, looked up): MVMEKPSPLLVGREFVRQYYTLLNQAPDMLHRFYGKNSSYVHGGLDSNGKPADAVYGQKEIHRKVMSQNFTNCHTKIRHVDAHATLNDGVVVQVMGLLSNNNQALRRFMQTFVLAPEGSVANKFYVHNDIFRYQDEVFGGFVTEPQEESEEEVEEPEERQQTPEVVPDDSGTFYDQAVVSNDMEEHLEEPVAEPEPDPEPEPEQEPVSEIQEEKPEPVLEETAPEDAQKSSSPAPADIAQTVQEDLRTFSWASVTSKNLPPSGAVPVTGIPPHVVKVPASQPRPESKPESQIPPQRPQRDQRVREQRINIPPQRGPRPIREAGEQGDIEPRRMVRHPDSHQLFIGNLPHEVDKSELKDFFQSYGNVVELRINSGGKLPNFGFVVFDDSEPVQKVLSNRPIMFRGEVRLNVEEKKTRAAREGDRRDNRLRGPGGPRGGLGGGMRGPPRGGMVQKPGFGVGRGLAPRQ
Technique: RNA Bind-n-Seq
Form: RNA
Sample: in vitro
Tested at: 200 nM
Notes: whole 134-nt RNA, ends assumed
With: 150 mM LiCl
Relative to: input library
Reading: higher = stronger binding
Library: 7-deaza-guanosine replaces G
| Sequence | log2 enrichment |
| --- | --- |
| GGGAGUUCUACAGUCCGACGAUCAAGUCCUGUGCUACACAUCGUAUGUACCGAAUCGGGUGGGUUUGGGUUUUUUUGGGAAAGUAUUAUGUUACGCCGUUCGGAUCUGCACUUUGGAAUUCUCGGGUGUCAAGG | -0.372 |
| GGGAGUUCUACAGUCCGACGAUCCACAGACAACACGCACCCACACAGACACAGAGGGAAGGGGUUGGGAUGGGGACAGGGUGCACAGCUGGGCGGGGUAGGACCCCAGCCCCUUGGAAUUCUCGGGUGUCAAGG | -0.346 |
| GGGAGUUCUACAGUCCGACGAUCAGUCCUGUGCUACACAUCGUAUGUACCGAAUCGGGUGGGUUUUUGGGUUUUUUUGGGAAAGUAUUAUGUUACGCCGUUCGGAUCUGCACUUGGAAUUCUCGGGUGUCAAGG | -0.235 |
| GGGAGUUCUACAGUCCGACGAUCUGUGCUACACAUCGUAUGUACCGAAUCGGGUUUUUUUGGGGUUUUUUUGGGUUUUUUUGGGGAAAGUAUUAUGUUACGCCGUUCGGAUCUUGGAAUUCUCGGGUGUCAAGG | 1.78 |
| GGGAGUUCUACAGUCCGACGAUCGUCCUGUGCUACACAUCGUAUGUACCGAAUCGGGGUUUUUUUGGGGUUUGGGGUGGGGAAAGUAUUAUGUUACGCCGUUCGGAUCUGCACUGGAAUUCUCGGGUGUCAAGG | -0.785 |
| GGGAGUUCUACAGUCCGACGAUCUUUUCUGCAUGGACCGUGCCCUAGAAUUUGCCCCUGCCUGCCAUCGCUUCAAAAUCCUCAAGGCAGAAUGUUUAGCAAUGCUGGGUCGUUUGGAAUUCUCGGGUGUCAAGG | 0.156 |
| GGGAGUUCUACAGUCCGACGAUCGUCCUGUGCUACACAUCGUAUGUACCGAAUCGGUUUUUGGGGUUUUUGGGGUUUUUGGAAAGUAUUAUGUUACGCCGUUCGGAUCUGCACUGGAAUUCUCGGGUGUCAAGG | 0.0823 |
| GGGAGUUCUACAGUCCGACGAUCAGUCCUGUGCUACACAUCGUAUGUACCGAAUCGGGGAGGGGUUUGGGGAAAAAGGGGAAAGUAUUAUGUUACGCCGUUCGGAUCUGCACUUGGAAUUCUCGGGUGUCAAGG | -0.339 |
| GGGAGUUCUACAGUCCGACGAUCUCAAGUCCUGUGCUACACAUCGUAUGUACCGAAUCGGAGGAAAAAGGAAAAAGGAAAGUAUUAUGUUACGCCGUUCGGAUCUGCACUUCCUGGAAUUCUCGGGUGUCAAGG | -0.425 |

Series 2
Target: RING finger protein unkempt homolog, zinc fingers 1-6, GST-SBP tag (UNK, Homo sapiens, UniProt Q9C0B0, residues 30-357)
Technique: RNA Bind-n-Seq
Form: RNA
Sample: in vitro
Tested at: not given
Notes: RNA with constant flanks, human and mouse sites, ends assumed
Relative to: input RNA pool
Reading: higher = stronger binding
Residues (chain): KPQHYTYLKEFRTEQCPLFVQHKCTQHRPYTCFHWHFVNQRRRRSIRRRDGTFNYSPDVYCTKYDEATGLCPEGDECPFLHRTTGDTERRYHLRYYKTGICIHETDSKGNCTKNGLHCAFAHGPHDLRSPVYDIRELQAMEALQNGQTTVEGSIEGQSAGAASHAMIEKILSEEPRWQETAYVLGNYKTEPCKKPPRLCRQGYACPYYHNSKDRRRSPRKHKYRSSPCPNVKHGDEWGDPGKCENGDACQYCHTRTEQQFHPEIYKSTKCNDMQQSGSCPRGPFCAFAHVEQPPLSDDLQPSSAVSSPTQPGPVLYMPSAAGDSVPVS
| Sequence | bound/input enrichment |
| --- | --- |
| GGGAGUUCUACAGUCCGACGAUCUGCUAGCUCAAGAAGCACCAGAGGUAUAUACAGAGUAUUGGGAUCAGAUCCAGGAUCCAUAAUAGUUUCUCACCUUGAAUCAAGGAUUUAUAUGAUAUUCUUCUCAGAUUUACUUUGUGUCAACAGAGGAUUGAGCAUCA | 0.209 ratio |
| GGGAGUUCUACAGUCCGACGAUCGAUAUUGUCUUUGCAGAAAAUCUUAGCCGACAUUUUUAUGGCAUCCAAAGAGGUGACAUUGUAAUUGCAAAAAGCCCAAGUGAUCCAAAAUCAAAUAUCUGUAAAAGAGUAAUUGGUUUGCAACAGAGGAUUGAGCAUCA | 0.178 ratio |
| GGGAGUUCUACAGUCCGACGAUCUAUUGCAAGGACCUUCUUUGCUGCCAGUUAUCAUAGGCUGUUUUAAGUUAGAAAACUGAAUAGCAACACUGAAUACUGUAGAAAUGCACUUUGCUCAGUAAUACUUGAGUUGUUGCAAUACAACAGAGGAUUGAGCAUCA | 0.265 ratio |
| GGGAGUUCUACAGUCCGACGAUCGACAUGUUCCUGGAAGCUCUGGGCUACACCUGGCAUGACACUUGCUUUGUAUGCUCAGUGUGUUGUGAAAGUUUGGAAGGUCAGACCUUUUUCUCCAAGAAGGACAAGCCCCUGUGUAAGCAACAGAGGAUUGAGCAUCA | 0.0764 ratio |
| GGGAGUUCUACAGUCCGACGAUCAUGGUUGUGAAAGGUGUUUGGGGUCUAAAACAUGAUUUUUCCUGGCACAUAUUUCAAAGCAUAGACUUUGUUACCUGCUGCUUCUUGUCUAAUUUACAGGGAUAUUUAAUUUUGUAAGGUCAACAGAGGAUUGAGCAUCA | 0.308 ratio |
| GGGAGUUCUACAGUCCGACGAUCAUAAACACAUUUAAAUUACUGUCAUAUGCUUCCUAUUGCAUUGAGCAUGGUGAUCUGGAGCUAGCAGCAAAGUUUGUCAAUCAGCUGAAGGGGGAAUCCAGACGAGUGGCACAGGACUGGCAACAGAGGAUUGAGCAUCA | 0.592 ratio |
| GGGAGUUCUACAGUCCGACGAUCGUCAACAGCUGCCUCAACCCCAUCCUCUACGCCUUCCUGGAUGAGAACUUCAAGGCCUGCUUCCGCAAGUUCUGCUGUGCAUCUGCCCUGCGCCGGGACGUGCAGGUGUCUGACCGCGUGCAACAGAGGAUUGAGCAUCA | 0.275 ratio |

Series 3
Target: TAR DNA-binding protein 43, full length, His tag (TARDBP, Homo sapiens, UniProt Q13148, residues 1-414)
Technique: RNA Bind-n-Seq
Form: RNA
Sample: in vitro
Tested at: 20 nM
Notes: 6-mer, flanks averaged, single round
With: 150 mM KCl
Relative to: input library
Reading: higher = stronger binding
| Sequence | 6-mer enrichment (R) |
| --- | --- |
| AUCCAA | 0.579 |
| UGGACA | 0.902 |
| GUGUCA | 0.859 |
| CCGUAU | 0.632 |
| CUGCCU | 0.637 |
| AAUGGG | 2.12 |
| UAACUA | 0.645 |
| UGGGGA | 3.82 |
| GUGCUU | 0.809 |
| CAACGU | 0.641 |

Further values, each from its own experiment
| Substance | target | test | test system | setting | scale | measurement | result |
| --- | --- | --- | --- | --- | --- | --- | --- |
| PhoQ, residues 284 288 289 292 302 303 TSTLRA | PhoP, residues 12 14 15 18 19 LQHIR (Escherichia coli, UniProt P23836) | Sort-seq, refers to: YFP reporter | E. coli | PhoQ-PhoP variant library, with: 10 µM Mg2+ | relative to: high Mg2+ state, higher = stronger signaling | fold induction | 15.5 |

Repeated from above (series 3):
| Sequence | 6-mer enrichment (R) |
| --- | --- |
| GUGCUU | 0.809 |
| UAACUA | 0.645 |
| AUCCAA | 0.579 |
